Published values gathered from unrelated publications.
Parts stem from different laboratories: compare values within a part only.

Sample 1 — method: aptamer microarray, sandwich; molecule type: DNA with 2'F-ANA; medium: in vitro; concentration: 200 nM; together with: Cy3 exosite-II aptamer, 400 nM; direction: higher = stronger binding; quantity: mean fluorescence intensity; oligonucleotide: GGTTGGTGTGGTTGG
Target: Prothrombin, mature alpha-thrombin (F2, Homo sapiens, UniProt P00734)
Setting: whole 15-mer aptamer, many near background
2'F-ANA at 3 7 9 10 12: 690 a.u.
2'F-ANA at 1 2 3 5 8 12 14 15: 50.2 a.u.
2'F-ANA at 3 5 6 9 13 15: 70.4 a.u.
2'F-ANA at 1 3 4 5 7 8 10 11 13 14 15: 52.9 a.u.
2'F-ANA at 1 4 8 11 12: 295 a.u.
2'F-ANA at 1 3 5 7 9 11 12: 103 a.u.
2'F-ANA at 1 5 6 7 8 9: 67.3 a.u.

Sample 2 — method: protein-binding microarray; molecule type: double-stranded DNA, one strand shown; medium: in vitro; concentration: 0.8 µM; setting: whole 60-bp probe, no competitor; direction: higher = stronger binding; quantity: fluorescence intensity
Target: Centromere-binding protein 1, full length, N-terminal tag (CBF1, Saccharomyces cerevisiae, UniProt P17106, residues 1-351)
UniProt P17106, sequence (whole entry, looked up): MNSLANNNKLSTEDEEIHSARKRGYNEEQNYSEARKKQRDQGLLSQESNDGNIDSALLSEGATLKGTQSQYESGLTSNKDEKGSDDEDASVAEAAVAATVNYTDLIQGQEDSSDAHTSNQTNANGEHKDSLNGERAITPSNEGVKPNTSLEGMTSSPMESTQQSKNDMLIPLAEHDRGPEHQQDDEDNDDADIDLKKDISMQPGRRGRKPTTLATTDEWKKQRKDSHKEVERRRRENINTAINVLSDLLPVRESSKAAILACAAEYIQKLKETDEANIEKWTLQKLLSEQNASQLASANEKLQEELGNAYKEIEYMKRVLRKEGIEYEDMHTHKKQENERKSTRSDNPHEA
GAACTTTATTTATTGAACGTGTGATTCCCCTGATAGGTCTTGATTCGCTTGACGCTGCTG: 636 a.u.
GAAGTATATCGTCGTCACCGACGTAAGGTTTTTTAGGTCTTGATTCGCTTGACGCTGCTG: 495 a.u.
CTAGTACTTGTACATCAGACAAGGATGAATTAATTCGTCTTGATTCGCTTGACGCTGCTG: 491 a.u.

Sample 3 — method: universal PBM; molecule type: double-stranded DNA, one strand shown; medium: in vitro; concentration: 600 nM; direction: higher = stronger binding; quantity: E-score
Target: Sal-like protein 4, full length isoform A (SALL4, Homo sapiens, UniProt Q9UJQ4, residues 1-1053)
UniProt Q9UJQ4, sequence (whole entry, looked up): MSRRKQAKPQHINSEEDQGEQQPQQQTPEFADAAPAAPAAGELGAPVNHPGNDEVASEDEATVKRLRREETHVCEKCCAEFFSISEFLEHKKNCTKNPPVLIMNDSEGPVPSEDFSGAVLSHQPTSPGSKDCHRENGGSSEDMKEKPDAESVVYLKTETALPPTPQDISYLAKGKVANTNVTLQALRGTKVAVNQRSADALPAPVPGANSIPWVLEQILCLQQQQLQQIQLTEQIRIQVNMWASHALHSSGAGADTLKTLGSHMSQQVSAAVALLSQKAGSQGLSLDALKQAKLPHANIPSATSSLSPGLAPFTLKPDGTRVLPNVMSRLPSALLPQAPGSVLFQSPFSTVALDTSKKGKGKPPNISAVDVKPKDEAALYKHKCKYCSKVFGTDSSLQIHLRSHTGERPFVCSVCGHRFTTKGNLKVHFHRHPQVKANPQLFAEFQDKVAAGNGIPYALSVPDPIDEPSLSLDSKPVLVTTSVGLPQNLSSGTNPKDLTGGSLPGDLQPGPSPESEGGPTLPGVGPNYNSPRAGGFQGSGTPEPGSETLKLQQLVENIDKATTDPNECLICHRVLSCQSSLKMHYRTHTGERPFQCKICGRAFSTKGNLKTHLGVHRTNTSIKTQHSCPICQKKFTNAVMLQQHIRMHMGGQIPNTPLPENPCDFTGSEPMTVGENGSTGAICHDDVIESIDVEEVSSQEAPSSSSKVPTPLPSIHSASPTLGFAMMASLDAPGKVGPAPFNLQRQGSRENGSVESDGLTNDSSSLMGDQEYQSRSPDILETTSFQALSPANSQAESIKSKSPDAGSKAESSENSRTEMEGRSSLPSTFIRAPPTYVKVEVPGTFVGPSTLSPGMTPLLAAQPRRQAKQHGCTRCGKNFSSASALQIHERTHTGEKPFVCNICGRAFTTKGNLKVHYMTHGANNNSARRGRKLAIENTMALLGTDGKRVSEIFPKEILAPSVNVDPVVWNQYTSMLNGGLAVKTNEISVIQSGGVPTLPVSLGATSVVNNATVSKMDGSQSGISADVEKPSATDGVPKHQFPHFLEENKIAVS
Setting: 8-mer, flanks averaged, mean of replicates
ATCCACTC: -0.115
AGGGAGGG: -0.249
ATGAAAGG: 0.153
GACCGCCA: -0.364
ACTCTGGA: 0.0866
CTTAGGAC: -0.132

Mixed results
PhoQ, residues 284 288 289 292 302 303 DDMDFR
fold induction (PhoP, residues 12 14 15 18 19 LQHIR (Escherichia coli, UniProt P23836); Sort-seq, refers to: YFP reporter; E. coli; PhoQ-PhoP variant library, together with: 10 µM Mg2+; relative to: high Mg2+ state, higher = stronger signaling): 0.679

Repeated from above (sample 1):
2'F-ANA at 1 3 4 5 7 8 10 11 13 14 15: 52.9 a.u.
2'F-ANA at 1 5 6 7 8 9: 67.3 a.u.
